Experimental data of several laboratories.
± marks the error that the study gave.

Structure (SMILES) | target or system | assay | system | conditions | scale | quantity | value
CN/C(=N\[N+](=O)[O-])NCc1cnc(Cl)s1 | Folsomia candida | reproduction, OECD 232 | LUFA 2.2 soil | 28 days |  | EC20 | 0.04 mg/kg dry soil
N[C@@]1(c2ccccc2Cl)C[C@H](O)CCC1=O |  |  | male CD-1 mice, plasma | intraperitoneal, 5 mg/kg |  | dose-normalized Cmax | 367 ± 92.1 ng/mL per mg/kg
CSCC[C@@H]1NC(=O)[C@H](CC(=O)O)NC(=O)CNC(=O)[C@H](CCCNC(=N)N)NC(=O)[C@H](C)NC(=O)[C@H](CCC(=O)O)NC(=O)[C@H](CCCNC(=N)N)NC(=O)[C@@H]2CSSC[C@@H]3NC(=O)[C@H](CO)NC(=O)[C@H]([C@@H](C)O)NC(=O)[C@@H]4CCCN4C(=O)[C@H](C)NC(=O)[C@H](Cc4c[nH]c5ccccc45)NC(=O)[C@H](CC(=O)O)NC(=O)CNC(=O)[C@H](CCCNC(=N)N)NC(=O)CNC(=O)[C@H](CCC(N)=O)NC(=O)[C@@H]4CCCN4C(=O)[C@@H](NC(=O)CNC(=O)C(C)F)CSSC[C@H](NC(=O)CNC(=O)[C@H](C)NC(=O)[C@H](CC(C)C)NC(=O)[C@H](CSSC[C@@H](C(=O)NCC(N)=O)NC(=O)[C@H]([C@@H](C)O)NC(=O)[C@H](CCCNC(=N)N)NC(=O)[C@@H]4CCCN4C1=O)NC(=O)[C@H](CC(=O)O)NC(=O)[C@H](CO)NC(=O)[C@H](CC(=O)O)NC(=O)[C@H](CCC(N)=O)NC(=O)[C@H](CO)NC3=O)C(=O)N[C@@H](C(C)C)C(=O)N2 (some centres unmarked) [fluorine-18 labelled] |  |  | nude mouse, U-87 MG xenograft, intestine | intravenous, 2.5 h, with: cyclo(RGDyK) co-injected |  | tissue uptake | 0.28 ± 0.08 %ID/g
C=C1C[C@@H]2[C@H](CC[C@]3(C)C(=O)CC[C@@H]23)[C@@]2(C)C=CC(=O)C=C12 |  | LC-MS/MS | postmenopausal breast cancer women, plasma | oral, 25 mg/day, 2 h, CrCl 83.0 to 108.5 mL/min |  | median plasma concentration | 8.6 ng/mL
COc1ccc2c(c1)[C@]13CCCC[C@@H]1[C@H](C2)N(C)CC3 |  |  | Wistar rat, both sexes, plasma | oral, 5 mg/kg, 2 h after pretreatment, with: single TCE 400 mg/kg |  | AUC(0-inf) | 156 ± 25 ng·h/mL
[123I]c1cncc(OC[C@@H]2CCN2)c1 |  | SPECT | human, low plasma nicotine, hippocampus | intravenous, dose not given | reference: plasma | tissue/plasma ratio | 28.8
C[C@H]1CNCCc2ccc(Cl)cc21 |  |  | male Sprague-Dawley rat, plasma | subcutaneous, 1 mg/kg, single dose |  | CL/F | 266 mL/min/kg
CN[C@@](C)(C[18F])C(=O)O | MDA-MB-468 tumour model |  | host not given, bone | 1 h, tumour-bearing |  | tracer uptake | 1.5 %ID/g
C[C@H](Cn1cnc2c(N)ncnc21)OCP(=O)(O)O | hCMEC/D3 |  |  | 5 µM, 1 h, 37 °C |  | intracellular accumulation | 5.91 ± 1.74 pmol/mg protein
Cc1ncc2n1-c1ccc(Cl)cc1C(c1ccccc1F)=NC2 | Caco-2 clone P27.7 |  |  | 3 µM, pH 7.4, with: cranberry juice 25% apical | apical to basolateral | Papp | 12 ± 2.4 ×10⁻⁶ cm/s
Cc1ncc2n1-c1ccc(Cl)cc1C(c1ccccc1F)=NC2 |  |  | human CYP3A5 expressers, serum | geometric mean, with: ketoconazole 400 mg |  | terminal half-life | 8.77 h

A few entries again:
Structure (SMILES) | target or system | assay | system | conditions | scale | quantity | value
CN[C@@](C)(C[18F])C(=O)O | MDA-MB-468 tumour model |  | host not given, bone | 1 h, tumour-bearing |  | tracer uptake | 1.5 %ID/g
